{"data": "Measurements collected from several papers", "note": "Protocols differ between the studies behind these lines. Several values in a cell are separate wells, animals, samples, runs or records. Numbers after ± are the reported error."}
{"Compound": "CC(C)C[C@H](NC(=O)[C@@H](CCCCNC(=O)[C@@H](Cc1ccccc1)NC(=O)CCCCCCCNC(=O)CN1CCN(CC(=O)O)CCN(CC(=O)O)CCN(CC(=O)O)CC1)NC(=O)[C@H](Cc1ccc(O)cc1)NC(=O)[C@H](CO)NC(=O)[C@H](Cc1c[nH]c2ccccc12)NC(=O)[C@H](Cc1c[nH]cn1)NC(=O)[C@@H]1CCC(=O)N1)C(=O)N[C@@H](CCCNC(=N)N)C(=O)N1CCC[C@H]1C(=O)NCC(N)=O [indium-111 labelled]", "method": "biodistribution", "species": "male athymic nude mice, DU-145 prostate cancer xenograft", "sample": "pancreas", "route": "intravenous", "dose": "0.037 MBq", "time": "2 h post-injection", "tissue uptake": "0.16 ± 0.08 %ID/g"}
{"Compound": "O=C([O-])CN1CCN(CC(=O)[O-])CCN(Cc2cccc(C(=O)[O-])n2)CC1.[177Lu+3]", "species": "BALB/c mouse", "sample": "large intestine", "route": "intravenous", "time": "1 h", "tissue uptake": "0.17 ± 0.06 %ID/g"}
{"Compound": "O=C([O-])CN1CCN(CC(=O)[O-])CCN(CC(=O)NC[C@H]2CC[C@H](C(=O)N[C@H](Cc3cnc4ccccc4c3)C(=O)NCCCC[C@H](NC(=O)N[C@@H](CCC(=O)O)C(=O)O)C(=O)O)CC2)CCN(CC(=O)[O-])CC1.[64Cu+2]", "method": "ex vivo gamma counting", "species": "22Rv1 tumour-bearing mice", "sample": "intestine", "route": "intravenous", "dose": "0.74 MBq", "time": "1 h post-injection", "tissue uptake": "14 %ID/g"}
{"Compound": "[123I]c1ccc2nc(-c3ccc(-n4ccnn4)nc3)cn2c1", "species": "Wistar rat", "sample": "heart", "route": "intravenous", "time": "14 h", "tissue uptake": "not detected"}
{"Compound": "COc1ccc2c(c1)C(C)(C)C(/C=C/C1=C(Oc3ccc(C(=O)NCCCCOc4cc(CN(Cc5ccccn5)Cc5ccccn5)cc(CN(Cc5ccccn5)Cc5ccccn5)c4)cc3)C(=C/C=C3/N(CCCCS(=O)(=O)[O-])c4ccc(OC)cc4C3(C)C)CCC1)=[N+]2CCCCS(=O)(=O)[O-].O=[N+]([O-])[O-].O=[N+]([O-])[O-].[99Tc+].[C-]#[O+].[C-]#[O+].[C-]#[O+].[Zn+2]", "species": "BALB/c mouse, Staphylococcus aureus myositis", "sample": "bone", "time": "12 h", "tissue uptake": "0.79 %ID/g and 0.54 %ID/g and 1.01 %ID/g and 1.09 %ID/g"}
{"Compound": "O=C(NCC1OC2CCC=CCCC2O1)c1ccc([18F])nc1 (centres unmarked)", "species": "healthy female BALB/c nude mice", "sample": "liver", "route": "intravenous", "dose": "7.4 MBq per mouse", "time": "2 min", "tissue uptake": "11.2 ± 1.7 %ID/g"}
{"Compound": "COc1ccc(Nc2nc(Nc3ccc(OCCOCCOCC[18F])cc3)ncc2Br)cc1", "species": "ICR mice, S180 tumour-bearing", "sample": "heart", "route": "intravenous", "dose": "370 kBq", "time": "15 min", "tissue uptake": "1.61 ± 0.24 %ID/g"}
{"Compound": "[11CH3]N1CCC(NC(=O)c2cc(-c3c(O)cc(O)cc3Oc3ccc([N+](=O)[O-])cc3)on2)CC1", "species": "Wistar rat, female, healthy", "sample": "urine", "route": "intravenous", "time": "30 min", "tissue uptake": "4.8 ± 1.2 %ID"}
